Experimental data of several laboratories.
Numbered parts are unrelated; each lists some results of a single study.
Sequence of UniProt Q9HC98 (whole entry, looked up): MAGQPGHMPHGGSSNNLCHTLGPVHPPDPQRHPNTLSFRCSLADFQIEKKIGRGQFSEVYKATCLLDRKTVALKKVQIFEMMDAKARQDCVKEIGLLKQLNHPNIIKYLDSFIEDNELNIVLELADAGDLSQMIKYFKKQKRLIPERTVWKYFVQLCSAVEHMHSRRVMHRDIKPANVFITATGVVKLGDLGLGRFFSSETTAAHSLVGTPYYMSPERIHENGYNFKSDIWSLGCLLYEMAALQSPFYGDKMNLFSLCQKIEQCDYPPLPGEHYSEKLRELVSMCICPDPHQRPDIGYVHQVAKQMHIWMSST
Sequence of UniProt Q04912 (whole entry, looked up): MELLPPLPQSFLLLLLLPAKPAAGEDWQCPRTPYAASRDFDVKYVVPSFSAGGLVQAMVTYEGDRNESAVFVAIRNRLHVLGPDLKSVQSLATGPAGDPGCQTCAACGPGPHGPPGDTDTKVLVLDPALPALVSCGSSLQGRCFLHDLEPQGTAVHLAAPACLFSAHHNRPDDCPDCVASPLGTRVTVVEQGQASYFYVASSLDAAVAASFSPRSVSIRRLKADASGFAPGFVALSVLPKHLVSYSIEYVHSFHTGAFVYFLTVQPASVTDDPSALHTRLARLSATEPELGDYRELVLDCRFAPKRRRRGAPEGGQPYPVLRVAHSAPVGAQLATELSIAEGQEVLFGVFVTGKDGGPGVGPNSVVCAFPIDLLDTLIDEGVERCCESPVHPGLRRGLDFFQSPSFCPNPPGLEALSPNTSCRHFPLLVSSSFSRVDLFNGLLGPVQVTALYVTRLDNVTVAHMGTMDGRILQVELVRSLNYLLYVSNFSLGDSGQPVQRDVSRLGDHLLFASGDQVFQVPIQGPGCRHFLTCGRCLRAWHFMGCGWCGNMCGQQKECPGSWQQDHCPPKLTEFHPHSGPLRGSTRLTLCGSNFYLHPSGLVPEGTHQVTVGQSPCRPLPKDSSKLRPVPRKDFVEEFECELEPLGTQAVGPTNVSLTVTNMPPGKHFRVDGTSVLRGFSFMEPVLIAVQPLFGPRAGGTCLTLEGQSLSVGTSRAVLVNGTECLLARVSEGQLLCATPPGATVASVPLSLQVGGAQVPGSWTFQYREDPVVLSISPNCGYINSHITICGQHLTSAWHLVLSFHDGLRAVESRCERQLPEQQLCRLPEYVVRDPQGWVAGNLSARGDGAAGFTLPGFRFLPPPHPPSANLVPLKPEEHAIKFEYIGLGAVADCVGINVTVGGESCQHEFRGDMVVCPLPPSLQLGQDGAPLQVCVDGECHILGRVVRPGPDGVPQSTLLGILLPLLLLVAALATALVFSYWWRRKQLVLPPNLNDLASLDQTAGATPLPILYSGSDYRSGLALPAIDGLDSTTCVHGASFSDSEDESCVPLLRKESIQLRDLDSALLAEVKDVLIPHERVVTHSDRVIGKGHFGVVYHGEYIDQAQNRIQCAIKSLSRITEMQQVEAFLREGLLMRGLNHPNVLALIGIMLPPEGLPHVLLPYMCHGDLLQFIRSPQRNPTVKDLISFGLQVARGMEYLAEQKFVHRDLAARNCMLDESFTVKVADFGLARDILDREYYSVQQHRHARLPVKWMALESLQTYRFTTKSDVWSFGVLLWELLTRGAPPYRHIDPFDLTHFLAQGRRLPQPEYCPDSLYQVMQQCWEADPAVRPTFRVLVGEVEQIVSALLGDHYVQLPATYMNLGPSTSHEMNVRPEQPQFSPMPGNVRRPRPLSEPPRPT
Sequence of UniProt Q8WTQ7 (whole entry, looked up): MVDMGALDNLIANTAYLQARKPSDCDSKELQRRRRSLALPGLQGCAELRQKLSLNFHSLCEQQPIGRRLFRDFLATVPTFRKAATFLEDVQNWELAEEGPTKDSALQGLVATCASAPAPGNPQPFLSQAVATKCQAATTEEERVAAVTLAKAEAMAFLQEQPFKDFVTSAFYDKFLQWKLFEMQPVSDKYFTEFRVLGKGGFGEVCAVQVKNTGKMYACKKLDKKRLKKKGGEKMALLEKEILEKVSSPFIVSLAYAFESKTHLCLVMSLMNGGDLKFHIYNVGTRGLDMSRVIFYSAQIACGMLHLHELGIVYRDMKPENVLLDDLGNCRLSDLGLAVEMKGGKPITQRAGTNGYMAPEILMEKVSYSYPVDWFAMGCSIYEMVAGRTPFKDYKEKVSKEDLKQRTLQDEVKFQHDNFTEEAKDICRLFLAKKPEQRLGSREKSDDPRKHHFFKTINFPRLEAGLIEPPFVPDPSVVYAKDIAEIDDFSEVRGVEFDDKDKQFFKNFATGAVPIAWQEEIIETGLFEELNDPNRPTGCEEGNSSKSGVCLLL
Sequence of UniProt P54762 (whole entry, looked up): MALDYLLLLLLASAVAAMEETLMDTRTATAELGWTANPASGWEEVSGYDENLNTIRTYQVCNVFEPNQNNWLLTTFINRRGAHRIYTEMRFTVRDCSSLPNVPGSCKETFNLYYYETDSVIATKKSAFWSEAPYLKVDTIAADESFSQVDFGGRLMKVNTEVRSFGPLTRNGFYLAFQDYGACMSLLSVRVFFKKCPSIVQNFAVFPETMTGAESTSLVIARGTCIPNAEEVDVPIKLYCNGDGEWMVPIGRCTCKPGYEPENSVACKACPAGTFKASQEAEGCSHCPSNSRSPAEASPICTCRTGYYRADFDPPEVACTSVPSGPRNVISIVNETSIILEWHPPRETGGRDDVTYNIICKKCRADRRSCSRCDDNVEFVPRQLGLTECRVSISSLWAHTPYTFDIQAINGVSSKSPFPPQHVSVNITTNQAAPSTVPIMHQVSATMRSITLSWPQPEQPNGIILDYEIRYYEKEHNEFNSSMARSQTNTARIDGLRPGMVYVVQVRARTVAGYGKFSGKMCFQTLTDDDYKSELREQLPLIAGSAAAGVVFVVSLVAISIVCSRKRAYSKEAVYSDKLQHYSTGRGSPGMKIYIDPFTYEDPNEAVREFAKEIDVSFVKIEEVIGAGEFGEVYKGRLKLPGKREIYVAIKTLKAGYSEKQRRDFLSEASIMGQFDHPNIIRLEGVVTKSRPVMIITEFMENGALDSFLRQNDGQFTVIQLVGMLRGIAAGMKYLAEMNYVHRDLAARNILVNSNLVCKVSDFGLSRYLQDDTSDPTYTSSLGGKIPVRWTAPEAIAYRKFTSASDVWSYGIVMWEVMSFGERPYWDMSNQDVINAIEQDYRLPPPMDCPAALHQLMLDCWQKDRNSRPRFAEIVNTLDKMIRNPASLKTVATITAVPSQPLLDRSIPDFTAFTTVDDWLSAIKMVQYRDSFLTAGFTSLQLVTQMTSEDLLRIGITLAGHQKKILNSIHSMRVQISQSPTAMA
Sequence of UniProt P51813 (whole entry, looked up): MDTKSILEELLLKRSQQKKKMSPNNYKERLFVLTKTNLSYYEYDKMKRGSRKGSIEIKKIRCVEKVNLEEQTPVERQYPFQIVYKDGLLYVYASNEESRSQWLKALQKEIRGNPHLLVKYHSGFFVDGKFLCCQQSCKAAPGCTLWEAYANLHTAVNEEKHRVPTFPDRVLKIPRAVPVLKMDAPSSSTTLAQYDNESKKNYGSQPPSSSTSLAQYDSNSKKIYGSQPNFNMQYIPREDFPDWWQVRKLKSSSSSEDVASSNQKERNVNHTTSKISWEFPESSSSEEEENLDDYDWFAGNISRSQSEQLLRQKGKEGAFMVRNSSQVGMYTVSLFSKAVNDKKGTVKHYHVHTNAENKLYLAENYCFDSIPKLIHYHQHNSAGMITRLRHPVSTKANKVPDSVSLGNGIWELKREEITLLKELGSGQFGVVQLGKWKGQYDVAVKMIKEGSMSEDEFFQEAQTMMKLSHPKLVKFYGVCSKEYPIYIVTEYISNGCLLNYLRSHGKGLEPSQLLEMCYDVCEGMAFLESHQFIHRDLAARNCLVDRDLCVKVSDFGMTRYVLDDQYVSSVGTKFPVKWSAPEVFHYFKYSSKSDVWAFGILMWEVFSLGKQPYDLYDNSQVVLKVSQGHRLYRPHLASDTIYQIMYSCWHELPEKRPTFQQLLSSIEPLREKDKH
Sequence of UniProt P22455 (whole entry, looked up): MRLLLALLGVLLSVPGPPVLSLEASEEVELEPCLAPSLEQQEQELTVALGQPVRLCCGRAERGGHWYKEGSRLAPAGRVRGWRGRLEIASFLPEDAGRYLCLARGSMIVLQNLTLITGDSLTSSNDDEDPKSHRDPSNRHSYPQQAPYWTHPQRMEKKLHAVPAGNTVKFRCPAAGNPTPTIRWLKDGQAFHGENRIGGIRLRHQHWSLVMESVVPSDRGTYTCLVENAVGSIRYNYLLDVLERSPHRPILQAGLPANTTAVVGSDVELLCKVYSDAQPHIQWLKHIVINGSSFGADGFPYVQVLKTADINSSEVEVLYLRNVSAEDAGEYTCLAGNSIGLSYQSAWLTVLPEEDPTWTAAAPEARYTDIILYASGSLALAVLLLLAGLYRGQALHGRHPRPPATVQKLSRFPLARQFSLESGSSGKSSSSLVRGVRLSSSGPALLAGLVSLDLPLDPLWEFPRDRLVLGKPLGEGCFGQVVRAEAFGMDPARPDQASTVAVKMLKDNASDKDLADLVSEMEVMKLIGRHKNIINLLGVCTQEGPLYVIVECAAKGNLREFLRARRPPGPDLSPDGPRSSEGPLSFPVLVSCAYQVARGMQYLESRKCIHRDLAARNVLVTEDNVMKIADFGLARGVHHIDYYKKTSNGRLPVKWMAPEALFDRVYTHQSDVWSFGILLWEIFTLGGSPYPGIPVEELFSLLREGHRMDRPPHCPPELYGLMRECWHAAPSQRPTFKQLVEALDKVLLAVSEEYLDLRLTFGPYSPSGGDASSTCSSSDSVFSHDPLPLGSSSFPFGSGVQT

Series 1
SMILES: CN(C)c1ncnc(-c2ccc3nc(Nc4cc(CN5CCN(C(=O)CC(F)(F)F)CC5)ccn4)[nH]c3c2)c1Cl
Effect on: cell-free assay
Technique: competition with immobilised ligand
Tested at: 1 µM
Measurement: remaining binding
CAMK2A (Homo sapiens, UniProt Q9UQM7): 100%
EPHA5 (Homo sapiens, UniProt P54756): 100%
BMX (Homo sapiens, UniProt P51813): 100%
ERBB3 (Homo sapiens, UniProt P21860): 63%
FGFR4 (Homo sapiens, UniProt P22455): 92%
TAOK1 (Homo sapiens, UniProt Q7L7X3): 77%
SGK3 (Homo sapiens, UniProt Q96BR1): 72%
CLK4 (Homo sapiens, UniProt Q9HAZ1): 99%
MET (Homo sapiens, UniProt P08581): 69%
FGFR2 (Homo sapiens, UniProt P21802): 100%
EPHB1 (Homo sapiens, UniProt P54762): 97%
MAP3K14 (Homo sapiens, UniProt Q99558): 62%
AKT1 (Homo sapiens, UniProt P31749): 100%
PRKCD (Homo sapiens, UniProt Q05655): 100%

Series 2
Target: TAR DNA-binding protein 43, full length, His tag (TARDBP, Homo sapiens, UniProt Q13148, residues 1-414)
Technique: RNA Bind-n-Seq
Form: RNA
Medium: in vitro
Tested at: 20 nM
Setting: 6-mer, flanks averaged, single round
Added: 150 mM KCl
Relative to: input library
Direction: higher = stronger binding
Measurement: 6-mer enrichment (R)
UUACUG: 0.627
CACCCC: 0.673
CACAAU: 0.666
ACAGCU: 0.636
CAGUUA: 0.611
CACGAG: 0.991
CGCUCU: 0.575
CACUGG: 0.99

Series 3
Target: Phosphate system positive regulatory protein PHO4, full length, GST-tagged (PHO4, Saccharomyces cerevisiae, UniProt P07270, residues 1-312)
Technique: competition protein-binding microarray
Form: double-stranded DNA, one strand shown
Medium: in vitro
Tested at: 2 µM
Setting: whole 60-bp probe, lowest competitor level
Added: Cbf1 competitor, 0.05 µM
Direction: higher = stronger binding
Measurement: fluorescence intensity
Residues (chain): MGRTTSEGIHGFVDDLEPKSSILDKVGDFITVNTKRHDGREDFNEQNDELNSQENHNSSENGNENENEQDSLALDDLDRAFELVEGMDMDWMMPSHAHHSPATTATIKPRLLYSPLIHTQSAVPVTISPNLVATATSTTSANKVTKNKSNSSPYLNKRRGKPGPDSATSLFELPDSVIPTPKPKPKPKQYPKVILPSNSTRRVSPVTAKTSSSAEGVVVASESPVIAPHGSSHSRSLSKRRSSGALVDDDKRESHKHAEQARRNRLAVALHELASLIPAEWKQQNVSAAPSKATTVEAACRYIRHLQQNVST
AAATTACTAAGTTGAATTGTGGGTGACGCCGTATGAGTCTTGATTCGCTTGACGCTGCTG: 4060 a.u.
TCACCCAAAACATTGATCATGCCTGAAGGTCCTAGGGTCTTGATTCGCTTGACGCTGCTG: 3640 a.u.
AAAGCGGTAATTTGACTCGTGGGTGCAGATATCTATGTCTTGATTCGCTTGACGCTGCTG: 11000 a.u.
ATGTAGTAACTTTTTGATGTGACGGTCGTTAATACCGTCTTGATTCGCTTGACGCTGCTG: 4170 a.u.
AACCAATACCACCGTCACGTGTTTTCAAGAAAGAAGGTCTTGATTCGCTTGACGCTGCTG: 18300 a.u.
CCTAGCACTCGCTATTTCGTGACGGCGTTCCAGGACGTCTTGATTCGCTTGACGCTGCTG: 4260 a.u.
AATCCTATTAAATTGCGCGTGGGAGTTTAAATGGGTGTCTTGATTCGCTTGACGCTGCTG: 10600 a.u.
TTTCTGAAAAAAATGCGCGTGAAAAGGAATCATTTGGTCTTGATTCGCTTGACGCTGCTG: 5460 a.u.

Series 4
SMILES: CS(=O)(=O)CCNCc1ccc(-c2ccc3ncnc(Nc4ccc(OCc5cccc(F)c5)c(Cl)c4)c3c2)o1
Effect on: enzyme activity
Mode: inhibitor
Tested at: 0.5 µM
Relative to: control
Measurement: remaining activity
JAK3 (Homo sapiens, UniProt P52333): 96.2%
FGFR3 (Homo sapiens, UniProt P22607): 96.7%
ABL2 (Homo sapiens, UniProt P42684): 97.3%
NEK6 (Homo sapiens, UniProt Q9HC98): 93.7%
MST1R (Homo sapiens, UniProt Q04912): 92.2%
CSNK1G2 (Homo sapiens, UniProt P78368): 99.5%
ACVR1B (Homo sapiens, UniProt P36896): 98.7%
MAPK3 (Homo sapiens, UniProt P27361): 94.8%
MAP2K2 (Homo sapiens, UniProt P36507): 106%
GSK3B (Homo sapiens, UniProt P49841): 103%
TEK (Homo sapiens, UniProt Q02763): 93.2%
GRK7 (Homo sapiens, UniProt Q8WTQ7): 95.8%
